Results of several laboratories.
Parts stem from different laboratories: compare values within a part only.

Block 1 — method: RNA Bind-n-Seq; molecule type: RNA; matrix: in vitro; concentration: 365 nM; baseline: no-protein control; reading: higher = stronger binding; measurement: RBNS enrichment (R)
Target: RNA binding protein fox-1 homolog 2, RRM domain, GST-SBP tag (RBFOX2, Homo sapiens, UniProt O43251-10, residues 100-194)
Setting: natural RNA segment, single round, ends assumed
Constant ends, left off below: GGGAGUUCUACAGUCCGACGAUC … UGGAAUUCUCGGGUGCCAA
Target sequence (chain): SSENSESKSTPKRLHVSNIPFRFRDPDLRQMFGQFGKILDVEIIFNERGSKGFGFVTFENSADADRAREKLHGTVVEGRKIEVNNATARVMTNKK
AUCUGGAGAGGUCAGAAUGGAACUACCUCAGUUGGCACAAACAGAUCAUGGCUCCUAUCAGUCUCAGAUUCCAGAUCUAGCAUUCCAGAUCUGAAUUUCAGAUUCAGAUC: 0.422
GAGGAGUUUGACAACUCCAGUGAGGACUAGGCUCCCUGUGCCUGGCAUCAGAGGGAAGGGAGGCUGGGGCUGCAGGGCAGUGAAACCCACGCAGCCUAGGCCAGAGCACU: 0.294
UGGCCACCUGCCAGACCCCCAAGGAGAGAGGCCAAGAGUGGCCCUGGCACAGUGUGUCUGCUAGCUGCUUCCACACCCCUUAGCCAUGUUAUCUGUAGAGUACCGGAUAG: 0.348
CUGGAGUCUGUUCUCACACCUGUGCGCAGGUUUGCACACUCAAGUUCUCAUGGGCAGGCUCAGGUCUGUCCCGCUGCCCUGGGCACGAGGUCUCCUGAGGACCUGGGCCU: 0.208
AUGUAAAGAAAGUAUAACAAUUAUUUCUUUGUAUUUUAGGGGCUUUAACCGGAACAUCGUCUAGCUGGUGUUAGGAAUGUUUGCUUAAUUUCCAGACUUUUUUUUAAAAA: 0.56
AGCGAGUCCGGAUUUAAGGAGGCAGCCUUGUUCCAGAAUGUCCUGAGACAGAGAUCGUGAAAGAAGAAGUCGUGAGCCUGCGGUCCAGUCAGUCCAGCUCGGGACCGAUG: 0.427
UAGAAGAAAGAGAAGUGUUUUUUUAAUUGAGAGCCUCUAUGUGCAAGGUGAUAUAUAAUCAUAUCCAGUUUAAUCUUCACAAUAUCCAAUGAAGAAGGUCUCAUUAUCUC: 0.615
CCUUGCAAGAUACCGAUAUUCAAGCUGUUGACAUACUCGUUGCCUACUUUAACAACUGUCAGAGAAACGUGAUGGGGGUAAGGAGGUACUUUUUAAAAUCGUUCAUAGAC: 0.398
GGUGCGAGGGAAGCAAUUGAAAAGGAACUUGCCCUGAGCACUCCUGGUGCAGGUCUCCACCUGCACAUUGGGUGGGGCUCCUGGGAGGGAGACUCAGCCUUCCUCCUCAU: 0.326
CCAGUAGACUCACACUAUAUGCUUUUUUGGGUUUGCCCGUUCCUUCCCCCACCCCCCCAGUUUUUUCAGAUUUCUUUACCUUUUUUUAAUUAAACUGUUUUGGAAAAAUG: 1.19
UAUAUUUUAUCUCUUAUACCUGUAUCUCCCAACUAGAAACAGCUCCAGUGUUUUUAAGAGAAUGUUUCUUAAAACCAAUAGGAAACUUAAGCGAGGUUUCAUGACACAAC: 0.549
GAUGAGUUUUUUUGUGGGUUGCUUUUUCUUCAGUGCUAAGAAAGUUCCCUCCAACAGGAACUCUCUGACCUGUUUAUUCAGGUGUAUUUCUGGUUUGGAUUUUUUUUUCC: 0.594

Block 2 — cell line: yeast with cyclin D1-Cln2 chimera; read-out: cell growth; mode: binder; method: competitive growth deep sequencing; molecule type: peptide; concentration: concentration not given; setting: peptide tiling library; reading: direction not given; measurement: growth enrichment score
KRRLDLETDHQY: -0.297
RRRIKLPESDSSED: 0.321
PFSENVSAVQKLDFSD: 1.33
KSKHEEEEWTDDDLVE: 1.5
NSMKELNFSHLPSNSV: 1.1
NEGVSNAVRRSLYIRD: -0.555
DSGFCLDSPGPLDSKE: 1.03
TTTTSPRTPPPLTVQD: 1.08

Block 3 — method: aptamer microarray, sandwich; molecule type: DNA with 2'F-ANA; matrix: in vitro; concentration: 200 nM; added: Cy3 exosite-II aptamer, 400 nM; reading: higher = stronger binding; measurement: mean fluorescence intensity; sequence: GGTTGGTGTGGTTGG
Target: Prothrombin, mature alpha-thrombin (F2, Homo sapiens, UniProt P00734)
Setting: whole 15-mer aptamer, many near background
2'F-ANA at 1 2 3 4 6 7 8 10 11 12 13 15: 62.3 a.u.
2'F-ANA at 1 2 3 4 5 6 8 9 10 12 15: 84.1 a.u.
2'F-ANA at 4 5 7 9 11 14 15: 42.8 a.u.
2'F-ANA at 2 3 4 5 7 8 9 12 14 15: 56.1 a.u.
2'F-ANA at 1 2 4 7 8 10 11 13 14 15: 49.5 a.u.
2'F-ANA at 1 3 5 6 7 9 12 13 14: 61.1 a.u.
2'F-ANA at 2 5 6 7 9: 71.4 a.u.
2'F-ANA at 1 4 5 6 7 10 11 12 14 15: 50.7 a.u.
2'F-ANA at 1 5 6 7 9 10 13: 48.4 a.u.
2'F-ANA at 1 2 4 6 7 11 12 14: 53.9 a.u.
2'F-ANA at 6 8 9 10 11 12 14 15: 98.9 a.u.
2'F-ANA at 2 3 4 10 14 15: 185 a.u.
2'F-ANA at 4 6 7 10 12 13: 97 a.u.
2'F-ANA at 3 5 6 8 11 12 13 14: 57.2 a.u.
2'F-ANA at 3 4 5 6 7 9 11 13: 73.8 a.u.
2'F-ANA at 3 4 7 10 14: 265 a.u.
2'F-ANA at 1 3 4 7 8 9 11 15: 188 a.u.
2'F-ANA at 4 6 7 8 11 12 13 15: 365 a.u.
2'F-ANA at 1 2 4 8 9 11 12 14 15: 67.4 a.u.
2'F-ANA at 3 5 8 9 10 13 15: 62.1 a.u.
2'F-ANA at 6 7 8 10 13 14: 101 a.u.
2'F-ANA at 1 3 4 5 6 12 13: 75 a.u.

Block 4 — method: universal PBM; molecule type: double-stranded DNA, one strand shown; matrix: in vitro; concentration: not given; reading: higher = stronger binding; measurement: E-score
Target: Sal-like protein 4, full length isoform B (SALL4, Homo sapiens, UniProt Q9UJQ4-2, residues 1-616)
Setting: 8-mer, flanks averaged, mean of replicates
TCGTTAGA: 0.0767
CGATCCCA: -0.118
ACGTCTGC: -0.196
CGCGAAAC: -0.216
ATAATCAG: 0.271
CTGTTGAC: -0.0503
AGAGTTAC: 0.0475
AATTGGAT: 0.25
AAACCTGT: 0.0901
AAGAAGTC: 0.128
CCAGAGGC: -0.177
CGGCTGAA: -0.133
GCGCCGTA: -0.184
CACGCGGA: -0.117
CATTAGAC: 0.0524
ACGTAACT: -0.00974
CACTTACA: 0.271
TTATGGAA: 0.335
AATCGAGG: -0.173
AGTCACTA: 0.0602
CTCATCAC: -0.0737
ACAACGCG: -0.106
GACGCAAA: -0.258
ATGTTGTC: 0.0904
GTGGGCCA: -0.0946

Block 5 — method: protein-binding microarray; molecule type: double-stranded DNA, one strand shown; matrix: in vitro; concentration: 2200 nM top; setting: 60-bp whole probe; added: salmon DNA 0.4 mg/ml; baseline: random background probes; reading: higher = stronger binding; measurement: fitted relative affinity; constant ends, left off below: GCCTAGCAC … GTCTTGATTCGCTTGACGCTGCTG
Target: Interferon regulatory factor 7, full length, phosphomimetic (IRF7, Homo sapiens, UniProt Q92985, residues 1-503, S471D/S472D/S475D/S476D/S477D/S483D/S484D/S487D)
Target sequence (chain): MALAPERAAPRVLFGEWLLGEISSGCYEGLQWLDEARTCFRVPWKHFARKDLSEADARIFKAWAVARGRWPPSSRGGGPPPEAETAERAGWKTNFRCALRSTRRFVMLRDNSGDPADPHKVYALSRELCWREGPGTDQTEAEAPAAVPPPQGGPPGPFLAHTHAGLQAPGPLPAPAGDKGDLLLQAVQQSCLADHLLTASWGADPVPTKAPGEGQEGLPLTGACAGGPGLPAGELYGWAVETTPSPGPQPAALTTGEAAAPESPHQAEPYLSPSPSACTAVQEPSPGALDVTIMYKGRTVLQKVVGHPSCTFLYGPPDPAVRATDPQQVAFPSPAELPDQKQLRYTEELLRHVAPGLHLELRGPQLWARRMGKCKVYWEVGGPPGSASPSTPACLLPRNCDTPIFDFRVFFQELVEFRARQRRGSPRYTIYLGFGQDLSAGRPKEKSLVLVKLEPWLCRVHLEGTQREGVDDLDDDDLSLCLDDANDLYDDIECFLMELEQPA
GACGATCTCATACTGGAGACGTGCTAG: 0.264 z-score
TTAGATATCAGTATCGATAAGTGCTAG: -0.107 z-score
TTAGGTTTTGGTTCCGGTTAGTGCTAG: 2.89 z-score
TTAGGGTTCGACTATCGGTTAGTGCTA: 0.21 z-score
GAAGATTTCGGGTATCGAGACGTGCTA: 2.41 z-score
TTAGGACTGGGGACTGGGTCAGTGCTA: -1.12 z-score
TTAGATTTCAGTATCGAGTAGTGCTAG: 0.494 z-score
CTAGGTATCGACTATCGGTTAGTGCTA: 0.347 z-score
TTAGGTCTCGGTTTCTGTTAGTGCTAG: 3.49 z-score
GACGGTATCAGTTTCGAGACGTGCTAG: 3.57 z-score
TAGTTTTCAATTTTTGCATCGTGCTAG: 2.29 z-score
GAAGGTTTCGGTATCGGGACGTGCTAG: 7.26 z-score
GACGGACTTCTTTTCCTGACGTGCTAG: 0.687 z-score
TTAGGTATCGGTCTCGGTTCGTGCTAG: 1.86 z-score
TCATGTTTCTTCTGCTGACTGTGCTAG: 2.16 z-score
CACAGAATCCCCTTCTACTCGTGCTAG: 1.09 z-score
TCACATTTTAGTTTTCAACTGTGCTAG: 2.18 z-score
TCTCCTCCAGGTTCTCTGACAGTGCTA: 0.94 z-score
TTAGGTATCCTTCCCCTTTAGTGCTAG: 1.63 z-score
TTAGAACGGAGTCTCGATTAGTGCTAG: -0.158 z-score
GACGGACTGGACTATCGGTACGTGCTA: -0.11 z-score
GCCGGACTGCTTATCCTGACGTGCTAG: 0.238 z-score
GACGGACTGGACGATCGGGACGTGCTA: -0.551 z-score
TTGTGTGTGTGTTTGTGTGTGTGCTAG: 1.34 z-score
GTTGTTTTAAATTCTAATTAGTGCTAG: 0.641 z-score

Block 6 — method: RNA Bind-n-Seq; molecule type: RNA; matrix: in vitro; concentration: 20 nM; setting: 6-mer, flanks averaged, single round; added: 150 mM KCl; baseline: input library; reading: higher = stronger binding; measurement: 6-mer enrichment (R)
Target: TAR DNA-binding protein 43, full length, His tag (TARDBP, Homo sapiens, UniProt Q13148, residues 1-414)
UUCGGU: 0.685
GUACUA: 0.628
AUCGGA: 0.803
UUCGUG: 0.765
UCCCGG: 0.816
UAUCGA: 0.595
AGUAAU: 0.634
CUCAGG: 0.962
CAGACA: 0.692
CGGACA: 0.958
CGAUGG: 1.38
UAGAUA: 0.634
GAAUCA: 0.671
AUCUUG: 0.619
CGUUAA: 0.574
CAAGUG: 0.964
CGGCAU: 0.833
UUGUGG: 1.41
ACACGC: 0.715
GGCAGC: 1.72
CGACCU: 0.623
GUUAUC: 0.589
ACCCAA: 0.654

Repeated from above (block 3):
2'F-ANA at 1 2 4 6 7 11 12 14: 53.9 a.u.
2'F-ANA at 6 7 8 10 13 14: 101 a.u.
2'F-ANA at 4 6 7 10 12 13: 97 a.u.
2'F-ANA at 1 2 3 4 6 7 8 10 11 12 13 15: 62.3 a.u.
2'F-ANA at 3 4 7 10 14: 265 a.u.
2'F-ANA at 1 3 4 5 6 12 13: 75 a.u.
2'F-ANA at 2 5 6 7 9: 71.4 a.u.
2'F-ANA at 1 3 4 7 8 9 11 15: 188 a.u.
2'F-ANA at 1 2 3 4 5 6 8 9 10 12 15: 84.1 a.u.
2'F-ANA at 4 6 7 8 11 12 13 15: 365 a.u.
2'F-ANA at 3 5 8 9 10 13 15: 62.1 a.u.
2'F-ANA at 6 8 9 10 11 12 14 15: 98.9 a.u.
